Published values pooled from the literature.
Each numbered part is a random draw from the data of one study; scales do not carry over between parts. Substitutions count along the parent as printed.

Study 1
Target: Hepatocyte nuclear factor 3-alpha (Foxa1, Mus musculus, UniProt P35582, residues 1-468, full length assumed)
Method: EMSA with sequencing
Molecule type: double-stranded DNA, one strand shown
Medium: in vitro
Concentration: 10 and 20 nM
Notes: whole designed probe, mean of two concentrations, ends assumed
Baseline: negative control set to 0
Reading: higher = stronger binding
Endpoint: normalised bound fraction
All sequences stand within: GTGAGCGGTGCCCATTGATGGGGAAC … TTTCACTGGGATCGTGGGGAC
Construct (chain): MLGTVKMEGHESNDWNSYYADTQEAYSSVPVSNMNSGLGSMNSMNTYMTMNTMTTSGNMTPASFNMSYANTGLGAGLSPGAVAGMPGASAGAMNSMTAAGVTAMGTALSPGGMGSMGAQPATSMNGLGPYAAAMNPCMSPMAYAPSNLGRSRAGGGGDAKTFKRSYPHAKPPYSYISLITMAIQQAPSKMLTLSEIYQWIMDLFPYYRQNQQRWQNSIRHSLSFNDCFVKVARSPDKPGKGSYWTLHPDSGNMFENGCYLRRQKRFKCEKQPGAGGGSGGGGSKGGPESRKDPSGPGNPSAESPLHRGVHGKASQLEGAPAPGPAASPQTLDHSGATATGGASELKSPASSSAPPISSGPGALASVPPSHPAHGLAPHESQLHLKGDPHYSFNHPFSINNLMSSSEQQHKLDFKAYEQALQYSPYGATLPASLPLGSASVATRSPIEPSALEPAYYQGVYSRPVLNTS
TTTCCAGCCCTTAGTTTCTGGCATTTAACCTGACTCTGGTCCCTGAATGGCATGGGAGTGCTTTCAACCACAGGTTTCCACATTCATGCCACTTGTTTGCTTTTTGATCTGACTCATTCCTACAGAGATCTTTATTTGCTTTGTGTTTCCAATGGAGAAAGAGCTTGGGAAGGGAGGATCCTAATTGTCTAAA: 0.473 ratio
CAGTACTTAATAAGTACAAAAAAGTCTATAGCGACACTATTTATAATTTTAAAAATGATTGAAGTCAATTAACATTTAAGTGTTAAAAAGAAAGTAATCTACCCAAATATACACAAACAGTAGACTGCTCTGGCTTGCATACAGAGAGGTCCATTGCCCTTTTGGGTGGGCCTAAGAAGCACTTCTGGGGAGA: 0.0875 ratio
TGAGGCCATTAATTATAGTGAGACGTATTATAAGATTATTTTCTTCTCCTTTGAGTACTATTTTCATCTCCTTCAAGTTTTTTCTTTCCTGTTTGTTTATTCTGTTCTCTGTGCTTCATGACAGGTCCTTTCCCACATGGCTTGATGTGTGGCTGGCTGTTCATTTTTAGGAGTGAGGCATTATAAACAGGCC: 0.384 ratio
GCAGACCGGCTCCACCGTGCCTTCTGGCCCTGAAGGGCTGGGCAGGTCCACGCCCTGCACCCTGGAGCTCCCCGGGGAGGGCGGGTGTAGGAATGTTTGCCCAGTGAGTGGACAGACGTTTACACAGCGGGATTTATAACCCACATCAGACGTCAACTCCGGGAGAAAGGGAGCTGTCCGCCCAGCCTCGAGC: 0.211 ratio
ATCTTCCCCCTCTTCCTTGCCCCACCAGCTCACCTACGGGGGTTATTTGCAGATAGGAAAATAAATAAAGCCGGCATTCGTTAACGCAGTTCTGGCGCAAACTGCTGTTTGCTCTGGATGAATCATGGTCCTTTGGCGAGGCGTGGCTCCGGGAGAGCAAAGCACCGTGTCAGGGCCATGATCCGGGCTCGCC: 0.342 ratio
AATTTCACTAATTACTGATTCTATGAATAGGATAATGATTATGAAGAAAAATGCAAAAGTACAATCTCTTGAGCTGAAGAAAAAAATACAGAGTAAACATGCTCCTCATAAGAATACTGTCTAAATCGAATGACCAACAAGACTGATTTGATGTTTGGTTGCAGAGATACTAGTCAAGTTTATTTTAATTCTT: 0.257 ratio
AGCTGAGAGTCATTTCCTCATCTTTATTCCAAACGAAGCTGGACACTCCCTTTTCATTTTTGAAAAGTAATCTGTGTGAGAAGGCAGCCAGCATGTTTACCCACTGGGCTTGGAGCCAGACTTCTTTCCCTGGTTCTTCCTCTCTCTGTTTCTCAATCTCCCCTGCTCTAAGATGGCCAGATATGAAAAGCTG: 0.0875 ratio
ATCTTCCCCCTCTTCCTTGCCCCACCAGCTCACCTACGGGGGTTATTTGCACAAAGGAAAATAAATAAAGCCGGCATTCGTTAACGCAGTTCACGCGCATACTGCTGTTTGCTCTGCATCTAACATGGTCCTTACGCGACGCCAGGCTCCGGGAGAGCAAAGCACCGTGTCAGGCGCATGATCCGGGCTCGCC: 0.402 ratio

Study 2
Target: Prothrombin, mature alpha-thrombin (F2, Homo sapiens, UniProt P00734)
Method: aptamer microarray, sandwich
Molecule type: DNA with 2'F-ANA
Medium: in vitro
Concentration: 200 nM
Notes: whole 15-mer aptamer, many near background
Together with: Cy3 exosite-II aptamer, 400 nM
Reading: higher = stronger binding
Endpoint: mean fluorescence intensity
Oligonucleotide: GGTTGGTGTGGTTGG
2'F-ANA at 4 5 6 7 8 9 12: 159 a.u.
2'F-ANA at 2 3 4 5 7 14 15: 53 a.u.
2'F-ANA at 2 3 4 5 7 9 12: 196 a.u.
2'F-ANA at 1 3 4 6 7 8 9 10 12 13: 163 a.u.
2'F-ANA at 1 2 5 7 8 11 15: 54.5 a.u.
2'F-ANA at 5 6 7 8 10 11 15: 47.3 a.u.
2'F-ANA at 8 9 10 11 12 13 14 15: 116 a.u.
2'F-ANA at 1 5 7 8 10 12 14 15: 46.3 a.u.
2'F-ANA at 2 5 6 7 8 9 10 11 12 13: 90.8 a.u.
2'F-ANA at 5 10 12: 51 a.u.
2'F-ANA at 3 4 6 8 9: 637 a.u.
2'F-ANA at 1 2 5 6 7 8 11 12 14 15: 52.9 a.u.
2'F-ANA at 1 2 3 4 7 8 9 12 13 14: 67.2 a.u.
2'F-ANA at 2 3 6 8 9 11 12 15: 815 a.u.
2'F-ANA at 2 3 4 9: 596 a.u.
2'F-ANA at 3 4 6 8 10 13 14 15: 133 a.u.
2'F-ANA at 1 2 5 6 8 14 15: 46.1 a.u.
2'F-ANA at 11 12 15: 659 a.u.
2'F-ANA at 1 2 4 5 6 9 11 13 15: 49.6 a.u.
2'F-ANA at 4 5 8 11 12 13 14 15: 48.1 a.u.
2'F-ANA at 1 3 4 6 7 8 9 10 11 13: 61 a.u.
2'F-ANA at 2 3 5 6 7 8 9 10 13: 74 a.u.

Study 3
Target: Interferon regulatory factor 7, full length, phosphomimetic (IRF7, Homo sapiens, UniProt Q92985, residues 1-503, S471D/S472D/S475D/S476D/S477D/S483D/S484D/S487D)
UniProt Q92985, sequence (whole entry, unmodified, looked up): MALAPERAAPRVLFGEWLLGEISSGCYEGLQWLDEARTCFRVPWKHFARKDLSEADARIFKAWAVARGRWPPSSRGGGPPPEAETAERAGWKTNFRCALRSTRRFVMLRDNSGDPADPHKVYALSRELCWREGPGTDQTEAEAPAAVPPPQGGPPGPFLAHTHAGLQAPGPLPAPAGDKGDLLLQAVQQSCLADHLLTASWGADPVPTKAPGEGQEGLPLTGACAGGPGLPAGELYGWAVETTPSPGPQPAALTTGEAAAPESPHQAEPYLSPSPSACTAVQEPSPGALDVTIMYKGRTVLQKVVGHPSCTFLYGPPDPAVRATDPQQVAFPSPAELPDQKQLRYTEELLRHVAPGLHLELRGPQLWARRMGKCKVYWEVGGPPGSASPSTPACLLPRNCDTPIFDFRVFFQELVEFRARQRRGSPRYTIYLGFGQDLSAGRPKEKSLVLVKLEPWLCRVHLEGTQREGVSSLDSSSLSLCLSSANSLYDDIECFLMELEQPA
Method: protein-binding microarray
Molecule type: double-stranded DNA, one strand shown
Medium: in vitro
Concentration: 2200 nM top
Notes: 60-bp whole probe
Together with: salmon DNA 0.4 mg/ml
Baseline: random background probes
Reading: higher = stronger binding
Endpoint: fitted relative affinity
All sequences stand within: GCCTAGCAC … GTCTTGATTCGCTTGACGCTGCTG
TCACTGCTCCTTCTGACACTGTGCTAG: 1.55 z-score
GAGATGATCCAGTTTTACCTGGTGCTA: 0.22 z-score
TTAGAGCTCCTCCTTCTCTAAGTGCTA: 0.583 z-score
TTAGATTTCGACTATCGGTTAGTGCTA: 1.63 z-score
TTAGGTTACGGGACTGGGTTAGTGCTA: -0.192 z-score
GACGGTATCGGGTATCGGGAGGTGCTA: -0.0912 z-score
TCACATCTCACTCTAATACTGTGCTAG: 1.69 z-score
GACGGTATCCTAATGCTGACGTGCTAG: 0.346 z-score
TTGGGACTGGGACTGGGTTAGTGCTAG: -0.913 z-score
GACGGTATCGGGACTGGGAACGTGCTA: -0.599 z-score
AACAGTTCATGTTTTGGAAAGTGCTAG: 0.793 z-score
GACCGACTGCTACTGCTGACGTGCTAG: -0.174 z-score
GTCGGTTTCGGTCTCGGGACGTGCTAG: 8.68 z-score
CACGATTTCAGTTTCGAGACGTGCTAG: 6.02 z-score
TCAGATTTCAGTATCGATTAGTGCTAG: 1.4 z-score
TTAGGACTTGGTTTCGGTTAGTGCTAG: 6.17 z-score
TTAGGTCTCGGACTGAGTTAGTGCTAG: -0.208 z-score
TGCTGTCTCAGAGTCCTCTGGTGCTAG: 0.146 z-score
TTAGGTTTCGGGTTTCGGTTAGTGCTA: 11.2 z-score
TTCGGACTGGACTTTCGGTTAGTGCTA: 5.13 z-score
GACGGTACCGACACTGGGGACGTGCTA: -0.744 z-score
TCAGAGCTCCTCCTTCTCACTGTGCTA: 0.428 z-score
TTAGGACTGCTACTGCTGTAGTGCTAG: -0.502 z-score

Study 4
Target: MAFK, bZIP domain (human)
Method: DHFR protein complementation
Medium: yeast
Notes: single substitutions, most at no-binding floor
Baseline: wild-type JUN-FOS pair
Reading: higher = stronger binding
Endpoint: binding fitness
Starting sequence: JUN, bZIP domain (human); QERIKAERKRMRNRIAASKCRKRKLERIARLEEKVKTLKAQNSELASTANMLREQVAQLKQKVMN; partner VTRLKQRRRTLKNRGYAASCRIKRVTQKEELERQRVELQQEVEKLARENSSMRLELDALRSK
T37P: -1.53 natural log
R30V: -1.38 natural log
L45T: -1.49 natural log
E32A: -1.39 natural log
K34E: -1.57 natural log
V56Y: -1.46 natural log
A29K: -1.26 natural log
R30M: -1.48 natural log
K34L: -1.49 natural log
K39C: -1.45 natural log
L45A: -1.42 natural log
E54N: -1.45 natural log
Q41T: -1.47 natural log
A57Q: -1.52 natural log
I28F: -1.4 natural log
L38S: -1.52 natural log
I28M: -1.43 natural log
T48C: -1.46 natural log

Study 5
Target: Sal-like protein 4, full length isoform B (SALL4, Homo sapiens, UniProt Q9UJQ4-2, residues 1-616)
Method: universal PBM
Molecule type: double-stranded DNA, one strand shown
Medium: in vitro
Concentration: not given
Notes: 8-mer, flanks averaged, mean of replicates
Reading: higher = stronger binding
Endpoint: E-score
Target sequence (chain): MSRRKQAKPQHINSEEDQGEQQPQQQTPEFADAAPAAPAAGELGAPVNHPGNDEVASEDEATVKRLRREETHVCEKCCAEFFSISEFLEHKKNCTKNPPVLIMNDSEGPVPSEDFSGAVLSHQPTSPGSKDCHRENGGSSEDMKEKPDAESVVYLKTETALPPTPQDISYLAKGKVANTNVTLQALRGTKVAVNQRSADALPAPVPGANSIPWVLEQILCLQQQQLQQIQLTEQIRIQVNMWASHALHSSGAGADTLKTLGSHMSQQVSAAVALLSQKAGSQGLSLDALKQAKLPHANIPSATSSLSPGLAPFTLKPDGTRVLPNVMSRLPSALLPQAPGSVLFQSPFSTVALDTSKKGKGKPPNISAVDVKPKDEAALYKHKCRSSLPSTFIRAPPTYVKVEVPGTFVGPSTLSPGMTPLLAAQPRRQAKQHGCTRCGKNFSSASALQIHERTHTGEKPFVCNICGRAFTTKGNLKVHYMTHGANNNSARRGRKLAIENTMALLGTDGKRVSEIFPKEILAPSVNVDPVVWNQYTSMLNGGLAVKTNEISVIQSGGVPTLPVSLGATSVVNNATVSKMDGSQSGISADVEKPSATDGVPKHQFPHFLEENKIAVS
GCCAGATA: 0.0442
CCCGGAGC: -0.285
AAAGTCTC: -0.00825
ACGAAGTG: 0.0265
AGGGGAAC: -0.191
CAGGAGAG: -0.169
CGACTTGA: -0.0156
ACCTTGAC: -0.0944
ACCTTAGG: -0.227
CCTGAGGA: -0.121
GAACGCGA: -0.101
ATGTGTAA: 0.239
ATAGACGC: 0.208
AGCTCGAT: -0.0596
ACGTAAAT: 0.191
AGAAAACG: 0.0229
CCCCTGCC: -0.205
ATAACGAA: 0.27
TGACTGAA: 0.0256
GATCGTCA: 0.127
CAGCCTGG: -0.279
CAAACCAG: -0.0927
AATTAAGT: 0.333
CCACGGCG: -0.237
GTACTACA: 0.21

A few entries again (study 4):
K34L: -1.49 natural log
K39C: -1.45 natural log
L45A: -1.42 natural log
E54N: -1.45 natural log
Q41T: -1.47 natural log
A57Q: -1.52 natural log
I28F: -1.4 natural log
